Measurements from different studies.
Compare with care: the assays were run in different laboratories. ± marks the error that the study gave.
Organism: HIV-1

With `C=C(C)[C@@H]1CC[C@]2(C(=O)N3CCC(CCCC(=O)NC)CC3)CC[C@]3(C)[C@H](CC[C@@H]4[C@@]5(C)CC[C@H](O)C(C)(C)[C@@H]5CC[C@]43C)[C@@H]12` the IC50 was over 10000 nM (viral replication, measured: p24; MT4, NL4-3; 96 h).
With `Cc1cc(C)cc(S(=O)(=O)c2c(C(=O)NCCCNS(=O)(=O)c3ccc([N+](=O)[O-])cc3)[nH]c3ccc(Cl)cc23)c1` the EC50 was 50 ± 23 nM (viral replication; MT-4, IIIB).
`CN(C)CCCn1c(=O)c2ccc3c(=O)n(CCCN(C)C)c(=O)c4c5[nH]c6ccccc6[nH]c5c(c1=O)c2c34` has a therapeutic window of 15.6 to 250 nM (TZM-bl, BaL; activity with cytotoxicity below 80%).
`Cc1cc(C)cc(S(=O)(=O)c2c(C(=O)NCCNS(=O)(=O)c3ccc(Br)cc3)[nH]c3ccc(Cl)cc23)c1` has an EC50 of 160 ± 27 nM (viral replication; MT-4, IIIB).
With `CN(C)CCCn1c(=O)c2cc(Br)c3c(=O)n(CCCN(C)C)c(=O)c4c5[nH]c6ccccc6[nH]c5c(c1=O)c2c34` the IC50 was under 25 nM (viral replication, LTR luciferase reporter; TZM-bl, NL4-3; 48 h).
`Cc1ccc(S(=O)(=O)NCCCNC(=O)c2[nH]c3ccc(Cl)cc3c2S(=O)(=O)c2cc(C)cc(C)c2)cc1` gave an EC50 of 36 ± 12 nM (viral replication; MT-4, IIIB).
For `C=C(C)[C@@H]1CC[C@]2(C(=O)N3CCC(CCCC(=O)N4CCOCC4)CC3)CC[C@]3(C)[C@H](CC[C@@H]4[C@@]5(C)CC[C@H](O)C(C)(C)[C@@H]5CC[C@]43C)[C@@H]12`, the IC50 was over 10000 nM (viral replication, measured: p24; MT4, NL4-3; 96 h).
The EC90 of `O=c1[nH]c(=O)n([C@H]2C[C@H](O)[C@@H](CO)O2)cc1I` is reported as over 100000 nM (viral replication, measured: reverse transcriptase activity; human PBM cells, LAI).
`C=C(C)[C@@H]1CC[C@]2(C(=O)N3CCN(CCCCC(=O)O)CC3)CC[C@]3(C)[C@H](CC[C@@H]4[C@@]5(C)CC[C@H](O)C(C)(C)[C@@H]5CC[C@]43C)[C@@H]12` gave an IC50 of over 10000 nM (viral replication, measured: p24; MT4, NL4-3; 96 h).
`CN(C)CCCn1c(=O)c2cc(Br)c3c(=O)n(CCCN(C)C)c(=O)c4c5[nH]c6ccc([N+](=O)[O-])cc6[nH]c5c(c1=O)c2c34` has an IC50 of under 25 nM (viral replication, LTR luciferase reporter; TZM-bl, NL4-3; 48 h).
`C=C(C)[C@@H]1CC[C@]2(C(=O)N3CCN(CCCC(=O)O)CC3)CC[C@]3(C)[C@H](CC[C@@H]4[C@@]5(C)CC[C@H](O)C(C)(C)[C@@H]5CC[C@]43C)[C@@H]12` has an IC50 of over 10000 nM (viral replication, measured: p24; MT4, NL4-3; 96 h).
With `COc1ccc(S(=O)(=O)NCCCCNC(=O)c2[nH]c3ccc(Cl)cc3c2S(=O)(=O)c2cc(C)cc(C)c2)cc1` the EC50 was 36 ± 5 nM (viral replication; MT-4, IIIB).
`COc1cc(-c2oc3cc(O)cc(O)c3c(=O)c2O)ccc1O` gave an IC50 of 1670 nM (viral replication; TZM-bl, NL4-3, CXCR4-tropic; 48 h).

Repeated from above:
For `C=C(C)[C@@H]1CC[C@]2(C(=O)N3CCC(CCCC(=O)N4CCOCC4)CC3)CC[C@]3(C)[C@H](CC[C@@H]4[C@@]5(C)CC[C@H](O)C(C)(C)[C@@H]5CC[C@]43C)[C@@H]12`, the IC50 was over 10000 nM (viral replication, measured: p24; MT4, NL4-3; 96 h).
